{"data": "Measurements of several laboratories", "note": "Each numbered part is a random draw from the data of one study; scales do not carry over between parts."}
{"data": "Set 1", "target": "RING finger protein unkempt homolog, zinc fingers 1-6, GST-SBP tag (UNK, Homo sapiens, UniProt Q9C0B0, residues 30-357)", "technique": "RNA Bind-n-Seq", "form": "RNA", "sample": "in vitro", "concentration": "not given", "notes": "RNA with constant flanks, human-mouse chimeric sites, ends assumed", "relative to": "input RNA pool", "reading": "higher = stronger binding", "constant ends, left off below": "GGGAGUUCUACAGUCCGACGAUC … CAACAGAGGAUUGAGCAUCA", "sequence of UniProt Q9C0B0 (30-357, looked up)": "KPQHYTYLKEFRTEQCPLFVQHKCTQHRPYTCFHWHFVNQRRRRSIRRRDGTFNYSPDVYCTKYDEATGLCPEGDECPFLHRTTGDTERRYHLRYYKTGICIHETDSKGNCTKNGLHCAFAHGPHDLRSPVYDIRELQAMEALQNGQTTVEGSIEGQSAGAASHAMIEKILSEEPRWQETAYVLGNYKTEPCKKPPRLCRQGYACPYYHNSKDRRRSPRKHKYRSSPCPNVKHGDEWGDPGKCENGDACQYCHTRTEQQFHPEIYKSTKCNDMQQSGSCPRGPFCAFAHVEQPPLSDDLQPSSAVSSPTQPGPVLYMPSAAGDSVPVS"}
{"Strand": "GUGUCCUUUCAACUUAAUAAAUCACUGCAUUUUUACUACUGUUCUGUGAGCAUCAGGACUGUAGCGCUGUGUCACCACAUGAGAGUUCAGAAGCAGCCUUUCUGUGGAGGGUGGGAAUGA", "bound/input enrichment [ratio]": 0.2}
{"Strand": "UAAGUCCUGUGCCAGCACUUCGCUCAUAAAGUUUUAAAUUCUGGACCAAUAGUGUUUGUUUCCUGAUUAUUGUAUCCAAUACUUUAUGUACUAUGUGACUCACUCUUACUGAUAAUAAAA", "bound/input enrichment [ratio]": 0.524}
{"Strand": "GCAGGAUCUUCUAAGUACCAGUGGGACAUUAUGAAAUCCCUUGGGCUCUCUGAUGACGACAUAGUGAAAUUUUCUGAAGCAGAACAUUGGCUUGAUUAUUUCCCACCACUGGCCGUUCAG", "bound/input enrichment [ratio]": 0.434}
{"Strand": "GCAGGAUCUUCUAAGUACCAGUGGGACAUUAUGAAAUCCCUUGGGCUGUCUGAUGAAGACAUAGUGAAGUUUUCUGAAGCAGAGCACUGGCUUGAUUAUUUCCCACCACUGGCCGUUCAG", "bound/input enrichment [ratio]": 0.224}
{"Strand": "ACACAAUAUGAGACCAACAGCAUGGACUUCAAAGUUGGGGCGGAUGGGACAGUCUUCGCCACUAGGGAGCUGCAGGUCCCCUCCGAGCAGGUGGCGUUCACGGUGACUGCAUGGGACAGC", "bound/input enrichment [ratio]": 0.328}
{"Strand": "AAAGUGAUGACUAUGUUUGUCCAACGACAGGUAUUUUCGGAGAGCAAAGAUGAGAUUGCGUUAGUCCUGUUUGGUACAGAUGGCACUGAUAAUGCCCUUGCUGGCAAGGACCAGUAUCAG", "bound/input enrichment [ratio]": 0.126}
{"Strand": "CACGUGUCUGCAGUACUUGAUGUGGACUACUCUCCCACUGGGAAGGAAUUUGUGUCUGCUAGUUUCGAUAAAUCUAUUAGAAUCUUUCCUGUGGACAAGAGCCGAAGCAGGGAAGUGUAU", "bound/input enrichment [ratio]": 1.79}
{"Strand": "AAAGAACCUCUCUCUGAUGAAGAUGAGGACAGUGAUGAUGAUGUUGAACCCAUUUCUGAAUUUCGAUUUGUGCCCAGUGAUAAGUCAGCAUUGGAGGCAAUGUUCACAGCAAUGUGUGAG", "bound/input enrichment [ratio]": 0.182}
{"Strand": "AAAGUGGACUAUGGCGAAUACAUGGAUAAAAACAAUGUGAGGCGGCAAGCAACAACAAUCAUAGCUGAUAACAUUAUAUUUCUGAGUGACCAGACAAAAGAAAAGGCGUAGAAAGGAUGA", "bound/input enrichment [ratio]": 2.39}
{"Strand": "ACUCUUGACUCUUUCCAUCCUCUUCCUUUCCCUCUUGAUAUUCAAGGCCAUGAAUCCCAAAAUAACAAUCUAUCUUACUAGCACCCACCCAAACUGAGAAUAAAUCCACCCCAGUGUCUC", "bound/input enrichment [ratio]": 1.45}
{"Strand": "GUGACUGGUGUUAAGAUUUCCCCUCAGAAAAGAACUGCAGUAGUCACCAUAAUUCCAUCUGUGGUGAAUGCCAAUCAGAUUGUGGAGCUGGUCCCAGACCUCAGUUUAGACAUGGGAACU", "bound/input enrichment [ratio]": 0.258}
{"data": "Set 2", "target": "Histone acetyltransferase KAT6A, winged helix 2, GST fusion (KAT6A, Homo sapiens, UniProt Q92794, residues 85-181)", "technique": "protein binding microarray", "form": "double-stranded DNA, one strand shown", "sample": "in vitro", "concentration": "not given", "notes": "8-mer, flanks averaged, mean of 2 arrays, mostly near background", "relative to": "not given", "reading": "higher = stronger binding", "Target sequence (chain)": "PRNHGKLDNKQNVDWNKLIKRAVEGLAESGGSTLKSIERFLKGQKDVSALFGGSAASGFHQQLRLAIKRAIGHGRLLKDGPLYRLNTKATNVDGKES"}
{"Strand": "GGGGACCA", "E-score": 0.0618}
{"Strand": "AACAAGCC", "E-score": -0.113}
{"Strand": "ACCATGAT", "E-score": -0.184}
{"Strand": "AGAGCCCA", "E-score": -0.00551}
{"Strand": "ACGAACGA", "E-score": 0.0111}
{"Strand": "CCGGGAAC", "E-score": 0.173}
{"Strand": "GCTGCTTA", "E-score": 0.0281}
{"Strand": "CCTTAGTC", "E-score": -0.139}
{"Strand": "AGTCACGA", "E-score": -0.104}
{"Strand": "GACAAACA", "E-score": -0.171}
{"Strand": "CTTCTCTA", "E-score": -0.0186}
{"Strand": "CCATACCG", "E-score": -0.0902}
{"Strand": "GTGCCGGA", "E-score": 0.0795}
{"Strand": "ACTCGATC", "E-score": -0.0255}
{"Strand": "ACAACCAC", "E-score": -0.0408}
{"Strand": "CGTGGTGC", "E-score": 0.0409}
{"Strand": "TCGAGGAA", "E-score": -0.0706}
{"Strand": "CAAGTATA", "E-score": -0.25}
{"Strand": "ATACCACC", "E-score": -0.0953}
{"Strand": "CGAAGGGA", "E-score": 0.0619}
{"Strand": "CTCATTGC", "E-score": 0.0136}
{"Strand": "GAGTTGAA", "E-score": -0.104}
{"Strand": "ATCGAGAG", "E-score": 0.0661}
{"Strand": "AAGCTGCC", "E-score": -0.00413}
{"Strand": "TATTATAA", "E-score": 0.0502}
{"data": "Set 3", "target": "Hepatocyte nuclear factor 3-beta, forkhead domain (FOXA2, Homo sapiens, UniProt Q9Y261, residues 142-269)", "technique": "protein-binding microarray", "form": "double-stranded DNA, one strand shown", "sample": "in vitro", "concentration": "not given", "notes": "k-mer, scored over probes, only values ≥0.25", "reading": "higher = stronger binding", "Target sequence (chain)": "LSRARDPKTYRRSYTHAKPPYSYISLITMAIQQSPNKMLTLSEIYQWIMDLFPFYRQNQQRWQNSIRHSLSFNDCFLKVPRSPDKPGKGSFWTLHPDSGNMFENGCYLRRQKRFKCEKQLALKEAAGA"}
{"Strand": "AAATATCT", "E-score": 0.291}
{"Strand": "AATACATT", "E-score": 0.308}
{"Strand": "CTACACAA", "E-score": 0.287}
{"Strand": "ACTGATAA", "E-score": 0.291}
{"Strand": "ATATTACG", "E-score": 0.278}
{"Strand": "GCACACAA", "E-score": 0.279}
{"Strand": "ACCTATAT", "E-score": 0.341}
{"Strand": "AATAACAA", "E-score": 0.371}
{"Strand": "AGGAATAT", "E-score": 0.266}
{"Strand": "AGATATAA", "E-score": 0.267}
{"Strand": "AAACATAT", "E-score": 0.33}
{"Strand": "AACTTGAT", "E-score": 0.298}
{"Strand": "ACGTACAC", "E-score": 0.287}
{"Strand": "ATAGTATA", "E-score": 0.255}
{"Strand": "AGATGAAA", "E-score": 0.261}
{"Strand": "ATATCTTG", "E-score": 0.263}
{"Strand": "ACTATAAA", "E-score": 0.334}
{"Strand": "CAAATCAA", "E-score": 0.34}
{"Strand": "GTTGTTAA", "E-score": 0.31}
{"Strand": "TAAGTGTA", "E-score": 0.342}
{"data": "Set 4", "target": "Sal-like protein 4, full length isoform B (SALL4, Homo sapiens, UniProt Q9UJQ4-2, residues 1-616)", "technique": "universal PBM", "form": "double-stranded DNA, one strand shown", "sample": "in vitro", "concentration": "not given", "notes": "8-mer, flanks averaged, mean of replicates", "reading": "higher = stronger binding"}
{"Strand": "AAGCGGAG", "E-score": -0.158}
{"Strand": "AACGCGTC", "E-score": -0.146}
{"Strand": "GTGACTGA", "E-score": 0.025}
{"Strand": "CTGCGTCC", "E-score": -0.298}
{"Strand": "CCACCCGG", "E-score": -0.297}
{"Strand": "GGGTTTAC", "E-score": -0.0531}
{"Strand": "CAGGACCG", "E-score": -0.243}
{"Strand": "CATGACAC", "E-score": 0.187}
{"Strand": "ATTTGTCC", "E-score": 0.155}
{"Strand": "CCTGTAGC", "E-score": -0.109}
{"Strand": "AAACTTGT", "E-score": 0.29}
{"Strand": "ATGCGGGA", "E-score": 0.0202}
{"Strand": "AACAGGTT", "E-score": 0.175}
{"Strand": "CCGGCGCC", "E-score": -0.352}
{"Strand": "CGTCTTGA", "E-score": -0.035}
{"Strand": "AATCGTAT", "E-score": 0.236}
{"Strand": "CGTTTATA", "E-score": 0.307}
{"Strand": "CAAAGGCG", "E-score": -0.16}
{"Strand": "TAATAGCA", "E-score": 0.162}
{"Strand": "ATAAACTC", "E-score": 0.276}
{"Strand": "AAGGTCCT", "E-score": -0.168}
{"Strand": "AATCATGC", "E-score": -0.0741}
{"Strand": "CCATGCCG", "E-score": -0.161}
{"Strand": "CTGCCAGC", "E-score": -0.131}
{"Strand": "CGCAATGC", "E-score": -0.144}
{"data": "Set 5", "target": "Fragile X messenger ribonucleoprotein 1, C-terminal low-complexity region (Fmr1, Mus musculus, UniProt P35922)", "technique": "RNA Bind-n-Seq", "form": "RNA", "sample": "in vitro", "concentration": "200 nM", "notes": "whole 134-nt RNA, ends assumed", "added": "150 mM LiCl", "relative to": "input library", "reading": "higher = stronger binding", "each molecule": "7-deaza-guanosine replaces G", "constant ends, left off below": "GGGAGUUCUACAGUCCGACGAUC … UGGAAUUCUCGGGUGUCAAGG"}
{"Strand": "CCUGUGCUACACAUCGUAUGUACCGAAUCGGGGAAAAAAGGGAAAAAAGGGGAAAAAAGGGAAAGUAUUAUGUUACGCCGUUCGGAUCUG", "log2 enrichment": 0.722}
{"Strand": "UUCUAUUUCUUUCCUUAAUGUUUUUUUCUUCCCUACUGUUUUAUCCUCCCUUUGCUUUGGAAGGAUAUUGCUGCAUAUCGAGCUAAAGGA", "log2 enrichment": 0.156}
{"Strand": "CCUCAAGUCCUGUGCUACACAUCGUAUGUACCGAAUCGGGUGGGUGGGGUGGGAAAGUAUUAUGUUACGCCGUUCGGAUCUGCACUUCCA", "log2 enrichment": -1.07}
{"Strand": "CAAGUCCUGUGCUACACAUCGUAUGUACCGAAUCGGGAGGGUUUUUGGGUUUGGGAAAGUAUUAUGUUACGCCGUUCGGAUCUGCACUUC", "log2 enrichment": -1.37}
{"Strand": "CAAGUCCUGUGCUACACAUCGUAUGUACCGAAUCGGAGGUUUUUUUGGAAAAAGGAAAGUAUUAUGUUACGCCGUUCGGAUCUGCACUUC", "log2 enrichment": -1.07}
{"Strand": "CCUCAAGUCCUGUGCUACACAUCGUAUGUACCGAAUCGGGGUGGUGGGGUGGAAAGUAUUAUGUUACGCCGUUCGGAUCUGCACUUCCAG", "log2 enrichment": -0.865}
{"Strand": "CAAGUCCUGUGCUACACAUCGUAUGUACCGAAUCGGUUUUUUUGGUUUGGAAAGGAAAGUAUUAUGUUACGCCGUUCGGAUCUGCACUUC", "log2 enrichment": -1.71}
{"Strand": "ACCAUGCAGGAAAGCAUCUUUGGGAAGUGGGGCAAGGGGGGGAUAGGGAGGGGGGUAACACUUUGGGAACAGGUGGUCCCAGGUCGUUUC", "log2 enrichment": 1.18}
{"Strand": "CCUCAAGUCCUGUGCUACACAUCGUAUGUACCGAAUCGGGAGGGUGGGAGGGAAAGUAUUAUGUUACGCCGUUCGGAUCUGCACUUCCAG", "log2 enrichment": -0.89}
{"Strand": "CCUGUGCUACACAUCGUAUGUACCGAAUCAAAUUUUUUUAAAUUUUUUUAAAUUUUUAAAAAAGUAUUAUGUUACGCCGUUCGGAUCUGC", "log2 enrichment": -2.87}
{"Strand": "AAGUCCUGUGCUACACAUCGUAUGUACCGAAUCGGGUUUUGGUUUUGGGGUUUUGGGAAAGUAUUAUGUUACGCCGUUCGGAUCUGCACU", "log2 enrichment": -1.49}
{"note": "For quick reference, copied from above (set 4):"}
{"Strand": "GGGTTTAC", "E-score": -0.0531}
{"Strand": "CAGGACCG", "E-score": -0.243}
{"Strand": "CATGACAC", "E-score": 0.187}
{"Strand": "ATTTGTCC", "E-score": 0.155}
{"Strand": "CCTGTAGC", "E-score": -0.109}
{"Strand": "AAACTTGT", "E-score": 0.29}
{"Strand": "ATGCGGGA", "E-score": 0.0202}
{"Strand": "AACAGGTT", "E-score": 0.175}
{"Strand": "CCGGCGCC", "E-score": -0.352}
{"Strand": "CGTCTTGA", "E-score": -0.035}
{"Strand": "AATCGTAT", "E-score": 0.236}
{"Strand": "CGTTTATA", "E-score": 0.307}
{"Strand": "CAAAGGCG", "E-score": -0.16}
